Results gathered from unrelated publications.
Each line is one published result; not all experiments were run side by side. Several values in a cell are separate wells, animals, samples, runs or records. Numbers after ± are the reported error.
UniProt P49840, sequence (whole entry, looked up): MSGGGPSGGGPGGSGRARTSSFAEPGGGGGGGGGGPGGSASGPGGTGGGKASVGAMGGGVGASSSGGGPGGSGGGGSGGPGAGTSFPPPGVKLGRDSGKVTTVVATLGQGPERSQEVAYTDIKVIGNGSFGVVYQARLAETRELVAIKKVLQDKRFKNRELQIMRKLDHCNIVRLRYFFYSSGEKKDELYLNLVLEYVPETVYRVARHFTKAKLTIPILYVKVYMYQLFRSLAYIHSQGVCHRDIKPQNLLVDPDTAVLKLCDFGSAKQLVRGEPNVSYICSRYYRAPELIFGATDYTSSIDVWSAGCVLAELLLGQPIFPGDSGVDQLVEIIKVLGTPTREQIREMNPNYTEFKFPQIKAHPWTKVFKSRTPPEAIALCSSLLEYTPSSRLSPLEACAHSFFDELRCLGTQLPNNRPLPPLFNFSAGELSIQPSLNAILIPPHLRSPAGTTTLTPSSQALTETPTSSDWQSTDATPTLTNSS

COc1ccc2nccc(Cc3cccc(-c4ccc(C(=O)O)cc4)c3)c2c1 — inhibition (A549; mitochondrial oxygen consumption, Seahorse XF96; 10 µM): 3%
C=C(c1ccc(O)c(Oc2cc3c(cc2OC)CCN(C)[C@@H]3Cc2ccc(OC)cc2)c1)[C@@H]1c2cc(O)c(OC)cc2CCN1C — inhibition (3T3-L1; adipocyte lipid accumulation, Nile Red staining; 2.5 µM): 11 ± 0.8%
Cc1cc(-c2nc(-c3ccc(OC(F)(F)F)cc3)no2)nn1Cc1ccnc(N2CCN(C3CC3)CC2)c1 — inhibition (H460; CellTiter-Glo, refers to: mitochondrial ATP; 1e-05 µM; baseline: vehicle): > 50%
C=CC(=O)N1CCC([C@@H]2CCNc3c(C(N)=O)c(-c4ccc(Oc5ccccc5)cc4)nn32)CC1 — inhibition (TMD8 RAC2 knockout; calcium flux, FLIPR; concentration not given, 4 h preincubation): 99%
c1ccc(-c2cccc(Cc3ccnc4ccc(C5COC5)cc34)c2)cc1 — inhibition (A549; mitochondrial oxygen consumption, Seahorse XF96; 10 µM): 23%
COc1ccc(C[C@@H]2c3cc(Oc4cc(C[C@@H]5c6cc(O)c(OC)cc6CCN5C)ccc4O)c(OC)cc3CCN2C)cc1 — inhibition (3T3-L1; adipocyte lipid accumulation, Nile Red staining; 10 µM): 38.2 ± 0.6%
C=CC(=O)Nc1cccc(Oc2nc(Nc3ccc(N4CCN(C)CC4)cc3)nc3ccoc23)c1 — inhibition (TMD8 RAC2 knockout; calcium flux, FLIPR; concentration not given, 1 h preincubation): 82.1%
Cn1cc(-c2ccc(-c3cncc(Cl)c3N3CCC4(CCNC4=O)CC3)cc2)cn1 — log2 fold change (COLO 205; gene expression, microarray, refers to: CA9 mRNA; concentration not given, 2 h; baseline: untreated cells): -2.14
COc1ccc(C[C@@H]2c3cc(Oc4cc(/C=C5\CN(C)CCc6cc(OC)c(OC)cc65)ccc4O)c(OC)cc3CCN2C)cc1 — inhibition (3T3-L1; adipocyte lipid accumulation, Nile Red staining; 10 µM): 27.6 ± 1.8%
O=C(O)C(=O)CO — z-scored log2 fold change (binding, equilibrium dialysis LC-MS; 5 µM, thermostabilized A2AR-BRIL construct; baseline: no-protein control, direction not given): -0.881
COc1ccc(C(=O)c2nccc3cc(OC)c(OC)cc23)cc1 — inhibition (A549; mitochondrial oxygen consumption, Seahorse XF96; 10 µM): 15%
C[C@H]1CN(C2COC2)CCN1c1ccc(Nc2cc(-c3ccnc(N4CCn5c(cc6c5CC(C)(C)C6)C4=O)c3CO)cn(C)c2=O)nc1 — inhibition (TMD8 RAC2 knockout; calcium flux, FLIPR; concentration not given, 4 h preincubation): 99%
COc1cc2ncnc(Cc3cccc(-c4ccccn4)c3)c2cc1OC — inhibition (A549; mitochondrial oxygen consumption, Seahorse XF96; 10 µM): 10%
COc1cc(C(=O)NS(=O)(=O)c2ccccc2C)ccc1Cc1cn(C)c2ccc(NC(=O)OC3CCCC3)cc12 — inhibition (human washed platelets; MPB labelling, refers to: platelet surface thiols; 20 µM, added: collagen): 17.4%
COc1cc2ccnc(Cc3cccc4ccccc34)c2cc1OC — inhibition (A549; mitochondrial oxygen consumption, Seahorse XF96; 10 µM): 59%
COc1cc2c(cc1OC)[C@@H](Cc1ccc(O)c(Oc3cc4c(cc3OC)CCN(C)[C@@H]4Cc3ccc(O)cc3)c1)N(C)CC2 — inhibition (3T3-L1; adipocyte lipid accumulation, Nile Red staining; 20 µM): 35 ± 1.1%
COc1ccc2nccc(Cc3cccc(-c4ccc(CO)cc4)c3)c2c1 — inhibition (A549; mitochondrial oxygen consumption, Seahorse XF96; 10 µM): 94%
O=C(O)[C@H](O)[C@@H](O)[C@H](O)[C@H](O)CO — z-scored log2 fold change (binding, equilibrium dialysis LC-MS; 5 µM, thermostabilized A2AR-BRIL construct; baseline: no-protein control, direction not given): 0.237
COc1cc2c(cc1O)C(Cc1ccc(O)c(-c3c(O)c(OC)cc4c3C(Cc3ccc(O)cc3)N(C)CC4)c1)N(C)CC2 (centres unmarked) — inhibition (3T3-L1; adipocyte lipid accumulation, Nile Red staining; 100 µM): 1.4 ± 0.8%
C=CC(=O)N1CCC[C@@H](n2nc(-c3ccc(Oc4ccccc4)cc3)c3c(N)ncnc32)C1 — inhibition (TMD8 RAC2 knockout; calcium flux, FLIPR; concentration not given, 4 h preincubation): 101%
COc1cc2c(cc1O)[C@@H](Cc1ccc(O)c(Oc3cc4c(cc3OC)CCN(C)[C@@H]4Cc3ccc(O)cc3)c1)N(C)CC2 — inhibition (3T3-L1; adipocyte lipid accumulation, Nile Red staining; 5 µM): 20 ± 0.8%
C=CC(=O)N1CCC[C@@H](c2ccc(C(N)=O)c3[nH]ccc23)C1 — inhibition (TMD8 RAC2 knockout; calcium flux, FLIPR; concentration not given, 2 h preincubation): 69.8%
Cc1nn(-c2nc3c(F)cc(F)cc3s2)c(O)c1C(c1ccc(C(F)(F)F)cc1)c1c(C)nn(-c2nc3c(F)cc(F)cc3s2)c1O — inhibition (THP1-Dual; IFN luciferase reporter; 5 µM, added: HT-DNA): 5.08% and 9.85% and 6.78% and 7.88% and 11% and 5.13%
COc1cc2ncnc(Cc3ccnc(-c4ccccc4)c3)c2cc1OC — inhibition (A549; mitochondrial oxygen consumption, Seahorse XF96; 10 µM): 0%
CC[C@@H]1[C@H](F)C(=O)N[C@@H]1COc1nccc2cc(C(N)=O)c(OC)cc12 — inhibition (GSK3A (Homo sapiens, UniProt P49840); ATP-site probe binding, ActivX profiling; THP-1 cell lysate; 0.01 mM, Lys2 site): -6%
Cc1nn(-c2nc3ccc(Cl)c(Cl)c3[nH]2)c(O)c1C1OC(=O)c2ccccc21 (centres unmarked) — inhibition (RAW-ISG; IFN luciferase reporter; 5 µM, added: HT-DNA): 78.2% and 77.5% and 77.8% and 77.9% and 78.3%
COc1ccc(C[C@@H]2c3cc(Oc4cc(C[C@H]5c6cc(OC)c(OC)cc6CCN5C)ccc4O)c(OC)cc3CCN2C)cc1 — inhibition (3T3-L1; adipocyte lipid accumulation, Nile Red staining; 1 µM): 15.7 ± 0.3%
CC#CC(=O)N1CCC[C@H]1c1nc(-c2ccc(C(=O)Nc3ccccn3)cc2)c2c(N)nccn12 — inhibition (TMD8 RAC2 knockout; calcium flux, FLIPR; concentration not given, 4 h preincubation): 98.5%
COc1ccc(Cc2ncnc3ccccc23)cc1OC — inhibition (A549; mitochondrial oxygen consumption, Seahorse XF96; 10 µM): 16%

A few entries again:
COc1ccc2nccc(Cc3cccc(-c4ccc(CO)cc4)c3)c2c1 — inhibition (A549; mitochondrial oxygen consumption, Seahorse XF96; 10 µM): 94%
O=C(O)[C@H](O)[C@@H](O)[C@H](O)[C@H](O)CO — z-scored log2 fold change (binding, equilibrium dialysis LC-MS; 5 µM, thermostabilized A2AR-BRIL construct; baseline: no-protein control, direction not given): 0.237
